Experimental data of several laboratories.
Numbered parts are unrelated; each lists some results of a single study.

Series 1
Target: Sal-like protein 4, full length isoform B (SALL4, Homo sapiens, UniProt Q9UJQ4-2, residues 1-616)
Method: universal PBM
Form: double-stranded DNA, one strand shown
Matrix: in vitro
Tested at: not given
Notes: 8-mer, flanks averaged, mean of replicates
Direction: higher = stronger binding
Quantity: E-score
GTTGCCGA: -0.159
AATAACCT: 0.287
ATAAAGAT: 0.312
GTTGAGGA: -0.0741
AGACCGAA: -0.0104
ACCCGTGA: -0.302

Series 2
Target: Interferon regulatory factor 5, full length, phosphomimetic (IRF5, Homo sapiens, UniProt Q13568-2, residues 1-514, S451D/S453D/S456D/S462D)
Method: protein-binding microarray
Form: double-stranded DNA, one strand shown
Matrix: in vitro
Tested at: 940 nM top
Notes: 60-bp whole probe
Added: salmon DNA 0.4 mg/ml
Relative to: random background probes
Direction: higher = stronger binding
Quantity: fitted relative affinity
All sequences stand within: GCCTAGCAC … GTCTTGATTCGCTTGACGCTGCTG
AACGGTATCCTTTTCCTGACGTGCTAG: 0.356 z-score
CACAGTCTGAGATCCAGAAGGTGCTAG: -0.408 z-score
GAGGGTATCGGGTTTCGGGACGTGCTA: 3.87 z-score
GACGGACTGCTAATCCTGACGTGCTAG: -0.702 z-score
GACGGACTGCTTTTCCTGATGTGCTAG: -0.216 z-score

Series 3
Target: Histone acetyltransferase KAT6A, winged helix 2, GST fusion (KAT6A, Homo sapiens, UniProt Q92794, residues 85-181)
Method: protein binding microarray
Form: double-stranded DNA, one strand shown
Matrix: in vitro
Tested at: not given
Notes: 8-mer, flanks averaged, mean of 2 arrays, mostly near background
Relative to: not given
Direction: higher = stronger binding
Quantity: E-score
Residues (chain): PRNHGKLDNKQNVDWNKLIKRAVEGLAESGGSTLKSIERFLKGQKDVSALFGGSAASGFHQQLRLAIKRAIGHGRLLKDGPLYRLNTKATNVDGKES
GACCGCGA: 0.218
ATCGCATA: 0.0582
ACATGGAT: -0.0423
GACGCAGA: 0.169

Single results of other studies
PhoQ, residues 284 288 289 292 302 303 TYGVAM — fold induction (PhoP, residues 12 14 15 18 19 SPWRL (Escherichia coli, UniProt P23836); Sort-seq, refers to: YFP reporter; E. coli; PhoQ-PhoP variant library, added: 10 µM Mg2+; relative to: high Mg2+ state, higher = stronger signaling): 11.5

Repeated from above (series 1):
AGACCGAA: -0.0104
ACCCGTGA: -0.302
